Measured values gathered from unrelated publications.
Parts stem from different laboratories: compare values within a part only.

Series 1 — method: RNA Bind-n-Seq; form: RNA; matrix: in vitro; concentration: not given; relative to: input RNA pool; direction: higher = stronger binding
Target: RING finger protein unkempt homolog, zinc fingers 1-6, GST-SBP tag (UNK, Homo sapiens, UniProt Q9C0B0, residues 30-357)
UniProt Q9C0B0, sequence (30-357, looked up): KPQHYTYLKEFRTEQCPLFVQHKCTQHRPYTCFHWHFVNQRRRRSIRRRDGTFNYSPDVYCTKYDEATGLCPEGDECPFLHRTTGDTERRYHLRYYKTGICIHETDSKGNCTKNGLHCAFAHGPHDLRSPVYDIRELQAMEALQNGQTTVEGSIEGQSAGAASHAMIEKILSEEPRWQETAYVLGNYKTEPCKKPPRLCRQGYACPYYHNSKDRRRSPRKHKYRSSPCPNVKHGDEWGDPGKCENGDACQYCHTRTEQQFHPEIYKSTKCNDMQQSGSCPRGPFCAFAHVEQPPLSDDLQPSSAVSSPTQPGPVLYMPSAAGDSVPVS
Notes: RNA with constant flanks, human and mouse sites, ends assumed
All sequences stand within: GGGAGUUCUACAGUCCGACGAUC … CAACAGAGGAUUGAGCAUCA
`GCAGUGGAAUUUUUCAUCAGAGAUAAAUAUGAAAAGAAGAAAUACUACGAUAAAAAUGCCAUAGCUAUUACAAAUAAAGAAAAGGAAAAAAAAAAGGAAGAGAAAAAGAGAGAAAAGGAG` gave a bound/input enrichment of 2.8 ratio.
`CUUCCUGAUUCCCCACCCUGCAAAGGCCUGGAACUGGCUGUGGGGCUCUGAGGCAUGCUGAAGGACAAAAGGUUACAGAGAUCCGACUUCAAAAGGCAGGGUCUGAGUCUGGCAGGUGGA` has a bound/input enrichment of 0.389 ratio.
The bound/input enrichment of `UCCCAGUACUAUCAGUAUUCUAGCAAUAAUCCCCGAAGGAGGCCUCUUCACAGUAGUGCCAUGGAGGUACAGACAAAGAAAGUUCGAAAAGUUCCUCCAGGUUUGCCAUCUUCAGUCUAU` is reported as 1.11 ratio.
`GAUGUAGUAGUCAACAUUUUUAUUAAUAGUUUUGGAUCCAUUCAAGAGACAACAAUGGACUAUAGAGUUAACAUUUUCUUGAGACAGAAAUGGAAUGACCCCAGACUCAAGCUACCUAGU` gave a bound/input enrichment of 4.67 ratio.
With `CACUUUGGAGCCACCGACCUGGAUGUGGCCAACUUCUACGUGUCACAGCUGCAGACUCCCAUAGGUGUGCAAGCAGAGGCGCUGCUCCGAUGUAGUGACAUUAUUUCAUAUACCUUCAAG` the bound/input enrichment was 0.409 ratio.
For `CUCAAUGCAUUGACCAAGCAUGUCUCACCACUGAUAGGACGUUUUGUUCCCUUUGCUGCCGUAGCUGCUGCUAAUUGCAUUAAUAUUCCAUUAAUGAGGCAAAGGGAACUCAAAGUUGGC`, the bound/input enrichment was 0.144 ratio.
With `AAGCUAUAAUGAGUUUUUCUAAAUUAAGGGAACUCUGCUACUUCCUUUUUUUUUUUUUUUAAUAGUUGGUCUACAAGUGCGCAUUGGUAGGGUGUCCAGCAGAUGGAUGGGGGCUGAUGG` the bound/input enrichment was 1.53 ratio.
The bound/input enrichment of `GCUAGAGAUCUGUUACACCCUUCCUUGGAGGAGGAGAAGAAAAAACAUAAGAAGAAACGGCUGGUUCAGAGCCCAAAUUCUUACUUCAUGGAUGUGAAAUGUCCAGGUUGCUACAAGAUU` is reported as 0.339 ratio.
The bound/input enrichment of `GGGGAAAAUUUUGCCUAUGUUCAAAUUAAGACAAUUUGGUCCACUAUGCUUCGUUUAUAUGAAUUUGAUCUCAUUGAUGGAUACUUUCCCACUGUGAAUUAUACAACUAUGAUUCACACC` is reported as 0.108 ratio.
`UUGGUCAUAUCAAACAUUAAAAAUGACCACUCUUUUAAUUGAAAUUAACUUUUAAAUGUUUAUAGGAGUAUGUGCUGUGAAGUGAUCUAAAAUUUGUAAUAUUUUUGUCAUGAACUGUAC` has a bound/input enrichment of 0.431 ratio.
`UGAACUACAAAGAGUAGAAGAGCUUUAUGAUUCAUUAUUACAAGCUAUUGCCUUCUAUGAAUUAGCAGUGUUUGACUCUCAGCCUUAGAAUUCUGAGGUUAACGUGCUAAAGUAUAAUUA` has a bound/input enrichment of 0.207 ratio.

Series 2 — method: RNA Bind-n-Seq; form: RNA; matrix: in vitro; concentration: 365 nM; relative to: no-protein control; direction: higher = stronger binding
Target: RNA binding protein fox-1 homolog 2, RRM domain, GST-SBP tag (RBFOX2, Homo sapiens, UniProt O43251-10, residues 100-194)
Notes: natural RNA segment, single round, ends assumed
All sequences stand within: GGGAGUUCUACAGUCCGACGAUC … UGGAAUUCUCGGGUGCCAA
Residues (chain): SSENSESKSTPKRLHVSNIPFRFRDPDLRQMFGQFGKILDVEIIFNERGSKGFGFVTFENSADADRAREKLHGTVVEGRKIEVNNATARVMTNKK
`CACAGCUGCAGCCCACCGCGGACCCCCCUGGUGCUCCAGGUUGGGUGAGUCUGAGCCGGAAGGGGUACGUGGUGGGCGCCCCUCAUUGUGGCUGGGGAGACCUCAUACCC` — result for “RBNS enrichment (R)”: 0.498.
`CACAGCUUCAAAUGUUACCGUCUAGUUAGAUUUUUAUUUAAAAUAUGAAAAACUGCUUUUCCCAAGAUGUUUUUUAAAAACAAAGCUACAAUUUUAAUAUUUAACAUAUU`: “RBNS enrichment (R)” 1.15.
Under “RBNS enrichment (R)”, `AUUAUUUCUUAACUGACUAGAAAGAGCCACCAGCAUUACUCUGUGCCUUUUGGACUUGAGUUUGUAUGUUCUGUAGGAACUACAUGCAUUCCUUUCACACAGUAUUUCAG` is recorded as 0.532.
Under “RBNS enrichment (R)”, `UAUAAAAUGAAUAAAAUGUUUAAGAAAAGAGAAAGAGAAAAGGAAUUAAUUCAGUGAAGGAUGAUUUUGCUCCUAGUUUUGGAGUUUGAAUUUCUGCCAGGAUUGAAUUA` is recorded as 1.19.
For `CAUCUUUACGAUAUAAAAUGAUGGCUCUCAAAUGAUUUUUCCAUCCAUUGUCCCGAUCCAGCUAUCACCCAGGGGUCCAUACAUUUUCUUCAUGUUUCUUCUUUGUAUAU`, “RBNS enrichment (R)” read 0.948.
`GCAGGAACUAGGCACAAGCUCUCUGAGCCAGUCCCUCAGCCACUGAAGUCCCCCUUUCUCCUUUUUUAUGAUGACAUUUUGGUUGUGCGUGCCUGUGUGUGUGUGUGUGU`: “RBNS enrichment (R)” 2.93.
`UCAUGAUCCCCUCCACCUGCACUGGUGUGCAUUACUGAAGCAAGGGUCCUGUGGACAUCUUGCAUUUUGGGCACUGCUAGGGGGUCUGGGCUGCUUGGAAGGAGCCAUGG`: “RBNS enrichment (R)” 0.381.
`CCGAUUCCUGCCUGCCCGCUUUGAGAGACCCGGUCACUUGCUUGUGGGCCCUCCCACUUGCCUCUGCCACCUCCCCUCAUAGCUAUUCCUGGCUUGCUGUCUGCAAGGCC` — result for “RBNS enrichment (R)”: 0.431.
Under “RBNS enrichment (R)”, `CUUUUUUAAACACCUGUUUAUCCCAACCUUUUUGAGCUCAAGCUGUGAUAAAGAAGGGCCCAUCCUAUUUCCCCUCAUCUAGUCCAUUUACGAUUCUCACUGACUCCCCG` is recorded as 0.656.
For `CAGAAAUUAUUUUUUGCACUUUGGCAUAAAUACUUUUCAAUAUCUGAUUUGUUCUCUGGAUAAAUUAGCAUAGUUAUUUUUUUAUUCACAUUUACAUUUCUAAGUAGUUG`, “RBNS enrichment (R)” read 0.811.
Under “RBNS enrichment (R)”, `AUGAUGACUUUUAAGCAUUUACAUCACGUACUCAUAACCUAUUAUGAAAAUAAAUGAAACUGGCUGGGUAUGGUGGCUCAUGCCUAUAAUCCCAGCACUUUGGGAGGCCG` is recorded as 0.277.
`CACCAGCCUGAACCAUUUGGUACCUGGUGUUAACUGGAGUCCUGUUUACAAGGUGGAGUCGGGGCUUGCUGACUUCUCUUCAUUUGAGGUCACAUUUUUCCCCCGUGGGG`: “RBNS enrichment (R)” 0.241.

Series 3 — method: protein binding microarray; form: double-stranded DNA, one strand shown; matrix: in vitro; concentration: not given; relative to: not given; direction: higher = stronger binding
Target: Histone acetyltransferase KAT6A, both winged helices, GST fusion (KAT6A, Homo sapiens, UniProt Q92794, residues 1-181)
Notes: 8-mer, flanks averaged, mean of 2 arrays, mostly near background
Construct (chain): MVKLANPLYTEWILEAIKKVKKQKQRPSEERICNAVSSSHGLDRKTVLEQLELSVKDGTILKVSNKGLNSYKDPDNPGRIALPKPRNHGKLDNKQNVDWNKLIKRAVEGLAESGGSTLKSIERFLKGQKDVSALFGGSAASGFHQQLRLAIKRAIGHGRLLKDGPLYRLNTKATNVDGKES
With `GAGCCTCC` the E-score was -0.126.
For `GCTGGAGA`, the E-score was -0.224.
`GAGGAAAC` has an E-score of -0.0448.
`CCGCATTA` has an E-score of 0.16.
For `CCGGTCCA`, the E-score was 0.0944.
With `TGTCGAAA` the E-score was -0.0262.
`GGAAGACC` has an E-score of -0.00621.
`GGCTTAAA` gave an E-score of 0.0464.
The E-score of `GATAGAAA` is reported as -0.069.
For `ACAAGACA`, the E-score was -0.0776.
The E-score of `CCGTACAC` is reported as 0.19.
With `AATTAGAT` the E-score was -0.125.
`AGCGGCAT` gave an E-score of 0.295.
`CCAGCTCA` gave an E-score of -0.144.
The E-score of `ACAAAGGC` is reported as -0.00722.
`CTGAGGAC` has an E-score of -0.0518.

Series 4 — method: aptamer microarray, sandwich; form: DNA with 2'F-ANA; matrix: in vitro; concentration: 200 nM; together with: Cy3 exosite-II aptamer, 400 nM; direction: higher = stronger binding; strand: GGTTGGTGTGGTTGG
Target: Prothrombin, mature alpha-thrombin (F2, Homo sapiens, UniProt P00734)
Notes: whole 15-mer aptamer, many near background
`2'F-ANA at 6 7 9 10 11 13 14 15`: “mean fluorescence intensity” 97.1 a.u.
Under “mean fluorescence intensity”, `2'F-ANA at 2 3 4 6 7 9 10 12 15` is recorded as 272 a.u.
Under “mean fluorescence intensity”, `2'F-ANA at 2 3 4 5 8 9 10 12 13` is recorded as 54.1 a.u.
`2'F-ANA at 2 3 5 7 9 10 12 13 14` — result for “mean fluorescence intensity”: 50.5 a.u.
Under “mean fluorescence intensity”, `2'F-ANA at 1 3 4 5 11 15` is recorded as 49.5 a.u.
For `2'F-ANA at 1 2 3 4 5 6 7 8 9 10 11 15`, “mean fluorescence intensity” read 54.3 a.u.
`2'F-ANA at 3 4 7 9 12 13 14 15`: “mean fluorescence intensity” 339 a.u.
`2'F-ANA at 2 4 5 7 8`: “mean fluorescence intensity” 130 a.u.
`2'F-ANA at 1 2 7 8 12 14 15` — result for “mean fluorescence intensity”: 87.3 a.u.
`2'F-ANA at 1 2 4 5 6 7 9 10 12 13 15` — result for “mean fluorescence intensity”: 51.4 a.u.
Under “mean fluorescence intensity”, `2'F-ANA at 1 3 5 7 9 11 12 13` is recorded as 75.2 a.u.
`2'F-ANA at 2 3 5 7 9 10 14 15`: “mean fluorescence intensity” 80.4 a.u.
For `2'F-ANA at 2 5 6 9 10 11 12 14`, “mean fluorescence intensity” read 44.9 a.u.
`2'F-ANA at 2 3 5 10 12`: “mean fluorescence intensity” 61.3 a.u.
`2'F-ANA at 3 5 7 9`: “mean fluorescence intensity” 136 a.u.
For `2'F-ANA at 2 3 4 5 6 8 12 15`, “mean fluorescence intensity” read 217 a.u.
`2'F-ANA at 1 2 3 4 5 6 9 10 11 13`: “mean fluorescence intensity” 120 a.u.
`2'F-ANA at 1 2 5 6 7 8 9 10 11 14 15` — result for “mean fluorescence intensity”: 46.8 a.u.
Under “mean fluorescence intensity”, `2'F-ANA at 1 4 5 8 13 14 15` is recorded as 65.5 a.u.
For `2'F-ANA at 1 4 7 8 9 10 11 14 15`, “mean fluorescence intensity” read 49.9 a.u.
`2'F-ANA at 1 2 3 4 5 8 10 11 12 14` — result for “mean fluorescence intensity”: 82.4 a.u.
